Measurements pooled from the literature.
Each line is one published result; not all experiments were run side by side. ± gives the spread as reported.
Sequence of UniProt P30550 (whole entry, looked up): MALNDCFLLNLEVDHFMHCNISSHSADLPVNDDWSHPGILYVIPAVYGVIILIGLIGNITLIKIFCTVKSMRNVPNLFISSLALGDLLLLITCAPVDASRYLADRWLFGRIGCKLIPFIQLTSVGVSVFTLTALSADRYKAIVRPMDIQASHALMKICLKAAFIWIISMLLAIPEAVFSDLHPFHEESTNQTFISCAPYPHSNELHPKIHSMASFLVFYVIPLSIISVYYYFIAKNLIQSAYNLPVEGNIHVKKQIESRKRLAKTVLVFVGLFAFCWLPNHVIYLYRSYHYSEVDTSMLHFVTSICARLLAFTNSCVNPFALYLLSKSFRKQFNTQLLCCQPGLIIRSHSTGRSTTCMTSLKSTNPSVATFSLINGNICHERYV
Sequence of UniProt P19484 (whole entry, looked up): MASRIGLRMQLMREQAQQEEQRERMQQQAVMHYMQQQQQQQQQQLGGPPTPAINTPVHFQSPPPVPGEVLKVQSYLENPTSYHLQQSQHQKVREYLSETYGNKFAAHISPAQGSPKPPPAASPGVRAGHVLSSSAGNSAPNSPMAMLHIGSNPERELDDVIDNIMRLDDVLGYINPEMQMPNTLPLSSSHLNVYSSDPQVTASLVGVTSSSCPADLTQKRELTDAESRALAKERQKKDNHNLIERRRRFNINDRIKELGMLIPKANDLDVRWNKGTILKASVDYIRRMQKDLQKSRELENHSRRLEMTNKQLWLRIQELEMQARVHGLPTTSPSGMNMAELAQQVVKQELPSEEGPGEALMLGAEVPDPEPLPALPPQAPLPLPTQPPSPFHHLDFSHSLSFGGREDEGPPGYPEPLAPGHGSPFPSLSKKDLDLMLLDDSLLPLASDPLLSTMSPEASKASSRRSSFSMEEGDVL
Sequence of UniProt P28074 (whole entry, looked up): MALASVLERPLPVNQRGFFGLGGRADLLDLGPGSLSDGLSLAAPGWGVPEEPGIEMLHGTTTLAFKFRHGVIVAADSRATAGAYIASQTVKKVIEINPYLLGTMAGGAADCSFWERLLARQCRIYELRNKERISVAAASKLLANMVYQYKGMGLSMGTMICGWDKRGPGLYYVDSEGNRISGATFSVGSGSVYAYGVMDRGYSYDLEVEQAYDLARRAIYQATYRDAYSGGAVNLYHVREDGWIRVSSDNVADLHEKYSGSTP
Sequence of UniProt P20618 (whole entry, looked up): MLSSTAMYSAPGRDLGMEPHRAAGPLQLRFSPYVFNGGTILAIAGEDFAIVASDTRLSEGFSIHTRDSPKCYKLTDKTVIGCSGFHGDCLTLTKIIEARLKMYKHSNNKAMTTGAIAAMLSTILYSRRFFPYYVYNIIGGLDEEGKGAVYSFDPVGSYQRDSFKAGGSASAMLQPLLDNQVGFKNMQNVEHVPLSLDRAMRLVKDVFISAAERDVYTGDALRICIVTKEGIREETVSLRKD
Sequence of UniProt P54761 (whole entry, looked up): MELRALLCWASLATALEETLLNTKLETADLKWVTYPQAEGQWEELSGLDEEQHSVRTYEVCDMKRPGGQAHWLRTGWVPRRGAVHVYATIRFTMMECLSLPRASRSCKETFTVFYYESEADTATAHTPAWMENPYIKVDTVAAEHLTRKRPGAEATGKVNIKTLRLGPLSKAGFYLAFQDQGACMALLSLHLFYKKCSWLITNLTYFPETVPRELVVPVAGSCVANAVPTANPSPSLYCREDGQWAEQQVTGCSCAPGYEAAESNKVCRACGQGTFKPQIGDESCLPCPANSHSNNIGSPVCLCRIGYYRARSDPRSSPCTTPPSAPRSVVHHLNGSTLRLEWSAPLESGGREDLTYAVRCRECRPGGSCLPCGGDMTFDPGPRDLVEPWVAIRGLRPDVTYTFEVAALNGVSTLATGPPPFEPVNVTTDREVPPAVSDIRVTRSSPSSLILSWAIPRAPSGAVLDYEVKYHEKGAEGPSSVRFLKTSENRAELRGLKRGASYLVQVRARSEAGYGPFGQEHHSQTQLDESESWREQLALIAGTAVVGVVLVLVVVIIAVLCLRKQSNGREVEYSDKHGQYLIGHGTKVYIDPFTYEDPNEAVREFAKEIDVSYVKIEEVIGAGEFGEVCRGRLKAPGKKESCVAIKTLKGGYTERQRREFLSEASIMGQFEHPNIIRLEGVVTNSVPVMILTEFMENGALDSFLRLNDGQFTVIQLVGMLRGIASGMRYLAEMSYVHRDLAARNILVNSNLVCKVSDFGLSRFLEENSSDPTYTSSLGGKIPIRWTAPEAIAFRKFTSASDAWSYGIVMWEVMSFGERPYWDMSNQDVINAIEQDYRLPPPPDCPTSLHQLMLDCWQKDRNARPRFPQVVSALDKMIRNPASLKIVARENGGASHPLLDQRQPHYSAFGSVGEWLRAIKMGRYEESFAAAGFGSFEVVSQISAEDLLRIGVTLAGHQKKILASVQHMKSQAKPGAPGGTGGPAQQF
Sequence of UniProt O95838 (whole entry, looked up): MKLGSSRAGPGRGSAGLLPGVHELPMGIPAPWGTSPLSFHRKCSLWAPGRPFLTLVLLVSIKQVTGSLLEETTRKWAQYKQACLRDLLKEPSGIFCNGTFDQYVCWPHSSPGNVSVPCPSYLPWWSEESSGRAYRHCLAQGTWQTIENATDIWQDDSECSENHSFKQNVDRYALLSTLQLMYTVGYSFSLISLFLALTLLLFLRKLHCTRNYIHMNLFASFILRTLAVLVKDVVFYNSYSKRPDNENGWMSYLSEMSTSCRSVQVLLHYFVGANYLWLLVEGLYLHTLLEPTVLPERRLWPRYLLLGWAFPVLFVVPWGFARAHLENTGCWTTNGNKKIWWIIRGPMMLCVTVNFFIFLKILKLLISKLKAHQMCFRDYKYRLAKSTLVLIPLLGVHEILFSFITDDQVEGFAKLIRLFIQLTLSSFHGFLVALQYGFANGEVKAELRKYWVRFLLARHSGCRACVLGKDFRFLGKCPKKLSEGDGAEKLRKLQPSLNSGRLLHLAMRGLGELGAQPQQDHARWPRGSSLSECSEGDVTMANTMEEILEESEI
Sequence of UniProt Q13526 (whole entry, looked up): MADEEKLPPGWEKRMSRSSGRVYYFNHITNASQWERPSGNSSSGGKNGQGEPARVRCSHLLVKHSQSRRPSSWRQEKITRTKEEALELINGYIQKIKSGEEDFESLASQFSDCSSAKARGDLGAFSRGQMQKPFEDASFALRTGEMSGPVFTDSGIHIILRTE
Sequence of UniProt P54756 (whole entry, looked up): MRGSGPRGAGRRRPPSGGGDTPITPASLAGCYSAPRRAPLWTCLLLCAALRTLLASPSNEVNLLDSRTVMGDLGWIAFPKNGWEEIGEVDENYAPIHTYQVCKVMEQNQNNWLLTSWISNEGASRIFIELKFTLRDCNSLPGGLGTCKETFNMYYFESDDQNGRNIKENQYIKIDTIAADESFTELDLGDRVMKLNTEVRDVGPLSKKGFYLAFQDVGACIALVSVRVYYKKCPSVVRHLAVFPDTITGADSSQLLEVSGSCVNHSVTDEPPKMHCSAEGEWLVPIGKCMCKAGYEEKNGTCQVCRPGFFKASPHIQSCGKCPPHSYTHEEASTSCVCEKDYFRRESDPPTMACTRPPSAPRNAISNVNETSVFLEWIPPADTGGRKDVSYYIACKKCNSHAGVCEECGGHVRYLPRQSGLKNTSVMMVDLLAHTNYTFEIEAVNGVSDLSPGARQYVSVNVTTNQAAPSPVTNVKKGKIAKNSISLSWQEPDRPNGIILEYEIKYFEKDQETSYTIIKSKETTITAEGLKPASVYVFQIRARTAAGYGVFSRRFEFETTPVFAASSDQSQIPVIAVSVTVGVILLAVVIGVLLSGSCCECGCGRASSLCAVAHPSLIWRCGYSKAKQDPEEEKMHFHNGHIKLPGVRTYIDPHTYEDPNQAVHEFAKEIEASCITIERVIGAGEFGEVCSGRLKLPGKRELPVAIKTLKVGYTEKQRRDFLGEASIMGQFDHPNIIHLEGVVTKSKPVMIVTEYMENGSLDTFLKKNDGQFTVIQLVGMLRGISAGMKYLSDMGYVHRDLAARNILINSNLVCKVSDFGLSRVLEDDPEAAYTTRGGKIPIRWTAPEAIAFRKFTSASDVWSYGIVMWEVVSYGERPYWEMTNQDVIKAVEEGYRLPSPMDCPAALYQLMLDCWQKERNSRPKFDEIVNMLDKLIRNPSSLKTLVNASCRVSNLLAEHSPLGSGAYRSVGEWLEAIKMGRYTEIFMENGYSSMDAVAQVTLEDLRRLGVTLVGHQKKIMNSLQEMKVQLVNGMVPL

C[C@H](NC(=O)[C@@H](N)Cc1c[nH]c2ccccc12)C(=O)N[C@@H](CCCNC(=N)N)C(N)=O
IC50 (Ephrin type-B receptor 4 (Mus musculus, UniProt P54761); ephrin-B2 binding, inhibitor; 1 h, together with: ephrin-B2 AP 0.02 nM): > 100000 nM

Cc1nc(Nc2ncc(C(=O)Nc3c(C)cccc3Cl)s2)cc(N2CCN(CCOC(=O)[C@@H](N)CCC(=O)O)CC2)n1
IC50 (SRC (Homo sapiens, UniProt P12931); enzyme activity, inhibitor): < 0.43 nM

CNC(=O)C1CCN(c2ccccc2NC(=O)c2ccc(-c3cc(O)ccc3C)c(OC)c2)CC1
IC50 (EPHA5 (Homo sapiens, UniProt P54756); target engagement in cells, BRET): 138 nM

CSCC[C@H](NC(=O)[C@H](Cc1ccccc1)NC(=O)[C@H](CO)NC(=O)CNC(=O)[C@@H](NC(=O)[C@H](C)NC(=O)[C@H](Cc1c[nH]c2ccccc12)NC(=O)[C@H](CC(C)C)NC(=O)[C@@H]1CCC(=O)N1)C(C)C)C(N)=O
IC50 (GRPR (Homo sapiens, UniProt P30550); ligand displacement in cells, radioligand): > 3000 nM

CC[C@H](C)[C@H](NC(=O)[C@H](Cc1ccccc1)NC(=O)[C@H](CC(=O)O)NC(=O)[C@H](CCCNC(=N)N)NC(=O)[C@H](C)NC(=O)[C@H](C)NC(=O)[C@H](CC(C)C)NC(=O)[C@H](CC(N)=O)NC(=O)[C@H](CC(=O)O)NC(=O)[C@H](CC(C)C)NC(=O)[C@@H](NC(=O)[C@@H](NC(=O)[C@H](CC(N)=O)NC(=O)[C@H](CCSC)NC(=O)[C@H](CCC(=O)O)NC(=O)[C@H](CC(=O)O)NC(=O)[C@H](CO)NC(=O)[C@H](Cc1ccccc1)NC(=O)[C@H](CO)NC(=O)[C@@H]1CCC[C@H]1NC(=O)[C@H](CC(=O)O)NC(=O)[C@H](C)NC(=O)[C@@H](N)Cc1c[nH]cn1)[C@@H](C)O)[C@@H](C)CC)C(=O)N[C@@H](CC(N)=O)C(=O)N[C@@H](Cc1c[nH]c2ccccc12)C(=O)N[C@@H](CC(C)C)C(=O)N[C@H](C(=O)N[C@@H](CCC(N)=O)C(=O)N[C@H](C(=O)N[C@@H](CCCCN)C(=O)N[C@H](C(=O)N[C@H](C(=O)N[C@@H](CC(=O)O)C(N)=O)[C@@H](C)O)[C@@H](C)CC)[C@@H](C)O)[C@@H](C)CC
IC50 (GLP2R (Homo sapiens, UniProt O95838)): 420 nM

C[C@H](OP(=O)(O)O)[C@H]1NC(=O)[C@H](CCCNC(=N)N)NC(=O)[C@@H](CCCNC(=N)N)NC(=O)[C@H](CCCNC(=N)N)NC(=O)[C@H](Cc2ccc3ccccc3c2)NC(=O)[C@H](Cc2ccc3ccccc3c2)NC(=O)[C@@H]2CCCCN2C1=O
IC50 (PIN1 (Homo sapiens, UniProt Q13526); fluorescence anisotropy competition; together with: FITC-labelled probe): 2000 ± 590 nM

C=CCNC(=O)[C@H](CCc1ccccc1)NC(=O)[C@H](CC(=O)NCC(C)(C)C)NC(=O)CCc1ccccc1
IC50 (Proteasome component C5/PSMB5 (Homo sapiens, UniProt P20618+P28074); inhibitor): 12 nM

CN(C)CCN1CCN(c2ccc(Oc3ccc(F)cc3F)c(-c3cn(C)c(=O)c4[nH]ccc34)c2)S1(=O)=O
IC50 (Bromodomain-containing protein 4, BD1 (BRD4, Homo sapiens, UniProt O60885); cell-free assay, TR-FRET): 1.19 nM

CC1=NN(c2ccc(C)c(C)c2)C(=O)/C1=N\Nc1cccc(-c2cccc(C(=O)NCCOCCOCCNC(=O)CCCC[C@@H]3SC[C@@H]4NC(=O)N[C@@H]43)c2)c1O
IC50 (Transcription factor EB, bHLH-LZ domain (TFEB, Homo sapiens, UniProt P19484); CLEAR DNA binding, fluorescence anisotropy; together with: FAM-CLEAR DNA 5 nM): 396 nM

[64Cu+2].c1cnc(CNCc2ccc(CN3CCCN4CCNCCCN(CC4)CC3)cc2)nc1
tissue uptake (CXCR4; NOD/SCID mouse, U87 and U87-stb-CXCR4 xenografts, heart; iv, 90 min, ex vivo): 1.24 ± 0.72 %ID/g

For quick reference, copied from above:
C[C@H](NC(=O)[C@@H](N)Cc1c[nH]c2ccccc12)C(=O)N[C@@H](CCCNC(=N)N)C(N)=O
IC50 (Ephrin type-B receptor 4 (Mus musculus, UniProt P54761); ephrin-B2 binding, inhibitor; 1 h, together with: ephrin-B2 AP 0.02 nM): > 100000 nM
